Results collected from several papers.
Every numbered part comes from another study and shows a few of its results, in no order.

Set 1
Target: Interferon regulatory factor 7, full length, phosphomimetic (IRF7, Homo sapiens, UniProt Q92985, residues 1-503, S471D/S472D/S475D/S476D/S477D/S483D/S484D/S487D)
UniProt Q92985, sequence (whole entry, unmodified, looked up): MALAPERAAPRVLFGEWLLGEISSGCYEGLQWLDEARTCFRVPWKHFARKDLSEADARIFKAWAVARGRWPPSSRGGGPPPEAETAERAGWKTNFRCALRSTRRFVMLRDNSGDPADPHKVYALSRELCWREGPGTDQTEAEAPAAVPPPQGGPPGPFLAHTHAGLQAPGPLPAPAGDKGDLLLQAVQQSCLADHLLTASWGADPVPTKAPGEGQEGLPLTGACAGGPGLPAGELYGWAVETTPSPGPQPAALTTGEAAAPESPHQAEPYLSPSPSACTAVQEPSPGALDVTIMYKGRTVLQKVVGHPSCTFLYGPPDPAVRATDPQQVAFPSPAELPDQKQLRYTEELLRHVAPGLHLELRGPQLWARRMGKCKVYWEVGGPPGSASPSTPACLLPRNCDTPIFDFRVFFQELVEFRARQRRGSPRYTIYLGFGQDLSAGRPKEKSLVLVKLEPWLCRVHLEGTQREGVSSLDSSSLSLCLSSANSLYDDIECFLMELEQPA
Technique: protein-binding microarray
Form: double-stranded DNA, one strand shown
Matrix: in vitro
Concentration: 2200 nM top
Setting: 60-bp whole probe
With: salmon DNA 0.4 mg/ml
Baseline: random background probes
Direction: higher = stronger binding
`GCCTAGCACTTAGGTCTCGGACTAGGTTAGTGCTAGGTCTTGATTCGCTTGACGCTGCTG`: “fitted relative affinity” -0.261 z-score.
`GCCTAGCACGACGGTTTCCTTTTCCTGAAGTGCTAGGTCTTGATTCGCTTGACGCTGCTG`: “fitted relative affinity” 5.17 z-score.
`GCCTAGCACTGAGGACTGGGACTGGGTTAGTGCTAGGTCTTGATTCGCTTGACGCTGCTG` — result for “fitted relative affinity”: -1.06 z-score.
For `GCCTAGCACTTGGGACTGGACTATCGGTTAGTGCTAGTCTTGATTCGCTTGACGCTGCTG`, “fitted relative affinity” read -0.492 z-score.

Set 2
Target: Protein C-ets-1 (ETS1, Homo sapiens, UniProt P14921, residues 1-441, K379A, full length assumed)
UniProt P14921, sequence (whole entry, unmodified, looked up): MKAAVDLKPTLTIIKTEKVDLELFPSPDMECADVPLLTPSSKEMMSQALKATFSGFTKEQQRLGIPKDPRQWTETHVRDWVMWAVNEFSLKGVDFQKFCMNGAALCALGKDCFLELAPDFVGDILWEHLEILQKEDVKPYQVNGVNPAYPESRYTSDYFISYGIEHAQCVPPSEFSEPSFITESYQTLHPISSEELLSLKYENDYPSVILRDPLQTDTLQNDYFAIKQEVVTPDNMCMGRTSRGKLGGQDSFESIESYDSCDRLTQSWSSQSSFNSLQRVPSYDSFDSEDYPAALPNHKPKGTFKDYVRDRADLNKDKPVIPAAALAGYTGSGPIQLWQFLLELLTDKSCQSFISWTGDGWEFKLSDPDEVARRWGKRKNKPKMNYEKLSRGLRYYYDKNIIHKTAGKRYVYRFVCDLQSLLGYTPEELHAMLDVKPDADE
Technique: protein-binding microarray
Form: double-stranded DNA, one strand shown
Matrix: in vitro
Concentration: not given
Setting: k-mer, scored over probes, only values ≥0.25
Direction: higher = stronger binding
With `CCGTACCG` the E-score was 0.262.
With `CCCGGCGC` the E-score was 0.299.
`CCCCGGTA` has an E-score of 0.441.
With `CGACGTCG` the E-score was 0.31.
`CTACTGTA` gave an E-score of 0.294.
`CCGGTGAA` gave an E-score of 0.331.

Set 3
Target: RNA binding protein fox-1 homolog 2, RRM domain, GST-SBP tag (RBFOX2, Homo sapiens, UniProt O43251-10, residues 100-194)
Technique: RNA Bind-n-Seq
Form: RNA
Matrix: in vitro
Concentration: 365 nM
Setting: natural RNA segment, single round, ends assumed
Baseline: no-protein control
Direction: higher = stronger binding
All sequences stand within: GGGAGUUCUACAGUCCGACGAUC … UGGAAUUCUCGGGUGCCAA
Residues (chain): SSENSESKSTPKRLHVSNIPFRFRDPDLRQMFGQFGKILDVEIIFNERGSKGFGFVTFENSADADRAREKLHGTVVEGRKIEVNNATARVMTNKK
`UUCCCUGCAGUAAUUGUAUGAUCUCACCCAGUGUGCAAUUUGUGAAAAUGAACCAAAUGUCAUUACUUUUGUCUUAAAGAAAAGUCUAUUUCAAGAAUAUGAACAGCAGU` — result for “RBNS enrichment (R)”: 0.495.
Under “RBNS enrichment (R)”, `GGUGAGGCCAGCUCACAGAGUGACAUCAUGGUCACCAGUACAUGUCGCUGGAGUAAAAUCUUGCCUUUAGAAACUAGGUUGAGCUGUUCAGAAAGGUCAAUUCUCUUCUG` is recorded as 0.26.
Under “RBNS enrichment (R)”, `UUCUGUCCUGGACAGCAUCAAAGAGGGCUUCUCCUUCCAGCCCAAGCUGCGUUCUCCCAGACGCCUUAACAGCAGUCCCCGCACCCCCAUCAGCCCCCUCAAGUUCUCUC` is recorded as 0.937.
For `GUGCUGUCUUAUUUUUGCUGUCACAAUUUGUAAACUCAGUGUGACUUCUAUAUGAGUGUUUUAACCCUCAGCAUUCUGUGGUCAGGAAGAUAAAAGCAUCUGCAGGUCCC`, “RBNS enrichment (R)” read 0.315.
Under “RBNS enrichment (R)”, `CAUUUUGUUGUGUUUUUUGAGACAGGGUCUUGCUCUGUCGCCCAGGUUGUAAUGCAGUGGCGCAAUCUCAGCUCACUGCAACCUCUCUCUCCCGGGUUCAAGUGAUUCUC` is recorded as 0.348.

Further values, each from its own experiment
For `PhoQ, residues 284 288 289 292 302 303 SSYNSA`, the fold induction was 16.9 (PhoP, residues 12 14 15 18 19 SQCLL (Escherichia coli, UniProt P23836); Sort-seq, measured: YFP reporter; E. coli; PhoQ-PhoP variant library, with: 10 µM Mg2+; baseline: high Mg2+ state, higher = stronger signaling).

Excerpt of the above (set 3):
Under “RBNS enrichment (R)”, `CAUUUUGUUGUGUUUUUUGAGACAGGGUCUUGCUCUGUCGCCCAGGUUGUAAUGCAGUGGCGCAAUCUCAGCUCACUGCAACCUCUCUCUCCCGGGUUCAAGUGAUUCUC` is recorded as 0.348.
Under “RBNS enrichment (R)”, `UUCUGUCCUGGACAGCAUCAAAGAGGGCUUCUCCUUCCAGCCCAAGCUGCGUUCUCCCAGACGCCUUAACAGCAGUCCCCGCACCCCCAUCAGCCCCCUCAAGUUCUCUC` is recorded as 0.937.
